Results collected from several papers.
Parts stem from different laboratories: compare values within a part only.

Set 1
Target: RNA binding protein fox-1 homolog 2, RRM domain, GST-SBP tag (RBFOX2, Homo sapiens, UniProt O43251-10, residues 100-194)
Technique: RNA Bind-n-Seq
Form: RNA
Medium: in vitro
Tested at: 365 nM
Notes: natural RNA segment, single round, ends assumed
Baseline: no-protein control
Direction: higher = stronger binding
All sequences stand within: GGGAGUUCUACAGUCCGACGAUC … UGGAAUUCUCGGGUGCCAA
Construct (chain): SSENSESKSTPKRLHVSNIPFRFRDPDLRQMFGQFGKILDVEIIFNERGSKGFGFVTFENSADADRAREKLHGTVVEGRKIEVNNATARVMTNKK
Strand | RBNS enrichment (R)
CAUUCAGCUUCAGUCUUUACAUACCAUGAAUAAAACAUUAAAACAUCAUAUGGAGAAGUUUACAUGGUGAUUGUUCACCUGCAGUACUGUGGAGUUUUAACAUUUUGUCC | 0.465
UAUUAUGCAAAAUUUAGAAGAAAAGUUAUUGGCAUGGUUGUUGCAUAUAGUUAAACUGAGAGUAAUUCAUCUGUGAAUCUGCUUUAAUUACCUGGUGAGUAACUUAGAAA | 2.65
UUGCAGGUGCCAAUGACUAACUUUUUGAAUUCUAUGUUGGCAUUAACAAUAAAGCAUUUUGCAAACACUGGUUAUAACUGUCUUUAUGGAGGCAGCUCUGGGAAUGGUGA | 0.969
UUACCACUGUCAGAUUGGAAGUGACCGAAGCAGGGGAUGAAGAGAAAGCUCACAUUCUAAGUAGAGAAGCAGGAAAAAUUGUUCAAAAGACAAACACCCUGUUGAACUGA | 0.306
UAAUCAGAGCAAGACAAAUGAGAGCAAAGCCCCAUGUGACUCCUCCUACUGCUGUGUUGUUUCAAACUUACCAGGUCCUCUGUCAGUUUCAGAGGUCACCUGUGAAGCAU | 0.286
CUUCCAUGCCGGAACCCAGGCCAGGGACCCACCGGCCUGUGGUUUGUGGGAAAGCAGGGUGGACGCUGAGGAGUGAAAGAACCCUGCACCCAGAGGGCCUGCCUGGUGCC | 0.279

Set 2
Target: Hepatocyte nuclear factor 3-beta, forkhead domain (FOXA2, Homo sapiens, UniProt Q9Y261, residues 142-269)
Technique: protein-binding microarray
Form: double-stranded DNA, one strand shown
Medium: in vitro
Tested at: not given
Notes: k-mer, scored over probes, only values ≥0.25
Direction: higher = stronger binding
Target sequence (chain): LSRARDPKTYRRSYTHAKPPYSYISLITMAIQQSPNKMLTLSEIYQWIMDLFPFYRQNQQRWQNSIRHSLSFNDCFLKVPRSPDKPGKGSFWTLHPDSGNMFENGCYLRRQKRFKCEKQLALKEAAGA
Strand | E-score
ACAGTATG | 0.264
AGTGTTTA | 0.317
AGCAATAC | 0.252
GTATCTAA | 0.325

Set 3
Target: Centromere-binding protein 1, full length, His-tagged (CBF1, Saccharomyces cerevisiae, UniProt P17106, residues 1-351)
UniProt P17106, sequence (whole entry, looked up): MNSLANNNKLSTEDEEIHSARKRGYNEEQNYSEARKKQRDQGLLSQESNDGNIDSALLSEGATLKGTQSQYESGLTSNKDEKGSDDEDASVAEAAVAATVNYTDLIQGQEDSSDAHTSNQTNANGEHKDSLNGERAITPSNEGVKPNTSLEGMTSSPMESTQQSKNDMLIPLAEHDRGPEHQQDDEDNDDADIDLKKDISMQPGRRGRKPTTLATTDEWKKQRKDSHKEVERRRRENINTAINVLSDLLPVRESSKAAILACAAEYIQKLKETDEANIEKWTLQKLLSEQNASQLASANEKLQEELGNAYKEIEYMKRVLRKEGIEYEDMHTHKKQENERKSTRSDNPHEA
Technique: competition protein-binding microarray
Form: double-stranded DNA, one strand shown
Medium: in vitro
Tested at: 2 µM
Notes: whole 60-bp probe, lowest competitor level
With: Pho4 competitor, 0.05 µM
Direction: higher = stronger binding
Strand | fluorescence intensity [a.u.]
AAACATCAAATCCATCACGTGCTTTTTAAAAAATATGTCTTGATTCGCTTGACGCTGCTG | 9070
TGGTTCACAGCTAACCTTGTGACAGTTGCCTCGCTGGTCTTGATTCGCTTGACGCTGCTG | 73.1
AGGATCTAATTCGTCTACGTGGCAAAGGTTTTCAAAGTCTTGATTCGCTTGACGCTGCTG | 84.9
TGCGCAACAACTTGTCGTGTGGGTGTATGTCTAGAAGTCTTGATTCGCTTGACGCTGCTG | 75.8

Further values, each from its own experiment
Molecule | target | test | test system | setting | how to read | endpoint | result
PhoQ, residues 284 288 289 292 302 303 TTSMTC | PhoP, residues 12 14 15 18 19 VQGLL (Escherichia coli, UniProt P23836) | Sort-seq, item: YFP reporter | E. coli | PhoQ-PhoP variant library, with: 10 µM Mg2+ | baseline: high Mg2+ state, higher = stronger signaling | fold induction | 9.58

A few entries again (set 1):
Strand | RBNS enrichment (R)
UAAUCAGAGCAAGACAAAUGAGAGCAAAGCCCCAUGUGACUCCUCCUACUGCUGUGUUGUUUCAAACUUACCAGGUCCUCUGUCAGUUUCAGAGGUCACCUGUGAAGCAU | 0.286
UUACCACUGUCAGAUUGGAAGUGACCGAAGCAGGGGAUGAAGAGAAAGCUCACAUUCUAAGUAGAGAAGCAGGAAAAAUUGUUCAAAAGACAAACACCCUGUUGAACUGA | 0.306
